Assay results collected from several papers.
Every numbered part comes from another study and shows a few of its results, in no order.
UniProt P10721, sequence (whole entry, unmodified, looked up): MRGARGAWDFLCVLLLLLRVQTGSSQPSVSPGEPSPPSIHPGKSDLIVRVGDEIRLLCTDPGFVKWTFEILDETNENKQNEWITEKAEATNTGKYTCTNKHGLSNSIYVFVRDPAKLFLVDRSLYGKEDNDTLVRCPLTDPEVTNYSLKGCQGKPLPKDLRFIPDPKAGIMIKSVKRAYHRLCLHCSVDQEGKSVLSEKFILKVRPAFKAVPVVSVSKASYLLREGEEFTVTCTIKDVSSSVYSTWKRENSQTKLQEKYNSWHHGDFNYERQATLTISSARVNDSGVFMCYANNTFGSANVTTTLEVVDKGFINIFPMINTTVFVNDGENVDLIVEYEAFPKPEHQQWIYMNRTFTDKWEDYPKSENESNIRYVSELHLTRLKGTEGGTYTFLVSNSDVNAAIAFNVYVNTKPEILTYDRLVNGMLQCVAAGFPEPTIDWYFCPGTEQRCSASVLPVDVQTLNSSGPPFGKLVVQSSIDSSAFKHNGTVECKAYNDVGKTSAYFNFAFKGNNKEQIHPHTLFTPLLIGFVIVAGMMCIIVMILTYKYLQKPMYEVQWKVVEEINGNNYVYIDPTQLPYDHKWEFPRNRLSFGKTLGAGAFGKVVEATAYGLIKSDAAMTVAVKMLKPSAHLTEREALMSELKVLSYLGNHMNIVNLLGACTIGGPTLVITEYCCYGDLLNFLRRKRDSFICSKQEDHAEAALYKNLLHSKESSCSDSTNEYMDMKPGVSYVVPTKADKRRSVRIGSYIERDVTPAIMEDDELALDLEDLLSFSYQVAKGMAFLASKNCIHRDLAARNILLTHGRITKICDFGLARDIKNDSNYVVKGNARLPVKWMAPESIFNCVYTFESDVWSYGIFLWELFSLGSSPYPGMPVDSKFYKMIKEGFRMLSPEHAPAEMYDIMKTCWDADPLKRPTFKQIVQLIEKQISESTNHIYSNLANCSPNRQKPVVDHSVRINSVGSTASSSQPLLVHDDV
UniProt Q16512, sequence (whole entry, looked up): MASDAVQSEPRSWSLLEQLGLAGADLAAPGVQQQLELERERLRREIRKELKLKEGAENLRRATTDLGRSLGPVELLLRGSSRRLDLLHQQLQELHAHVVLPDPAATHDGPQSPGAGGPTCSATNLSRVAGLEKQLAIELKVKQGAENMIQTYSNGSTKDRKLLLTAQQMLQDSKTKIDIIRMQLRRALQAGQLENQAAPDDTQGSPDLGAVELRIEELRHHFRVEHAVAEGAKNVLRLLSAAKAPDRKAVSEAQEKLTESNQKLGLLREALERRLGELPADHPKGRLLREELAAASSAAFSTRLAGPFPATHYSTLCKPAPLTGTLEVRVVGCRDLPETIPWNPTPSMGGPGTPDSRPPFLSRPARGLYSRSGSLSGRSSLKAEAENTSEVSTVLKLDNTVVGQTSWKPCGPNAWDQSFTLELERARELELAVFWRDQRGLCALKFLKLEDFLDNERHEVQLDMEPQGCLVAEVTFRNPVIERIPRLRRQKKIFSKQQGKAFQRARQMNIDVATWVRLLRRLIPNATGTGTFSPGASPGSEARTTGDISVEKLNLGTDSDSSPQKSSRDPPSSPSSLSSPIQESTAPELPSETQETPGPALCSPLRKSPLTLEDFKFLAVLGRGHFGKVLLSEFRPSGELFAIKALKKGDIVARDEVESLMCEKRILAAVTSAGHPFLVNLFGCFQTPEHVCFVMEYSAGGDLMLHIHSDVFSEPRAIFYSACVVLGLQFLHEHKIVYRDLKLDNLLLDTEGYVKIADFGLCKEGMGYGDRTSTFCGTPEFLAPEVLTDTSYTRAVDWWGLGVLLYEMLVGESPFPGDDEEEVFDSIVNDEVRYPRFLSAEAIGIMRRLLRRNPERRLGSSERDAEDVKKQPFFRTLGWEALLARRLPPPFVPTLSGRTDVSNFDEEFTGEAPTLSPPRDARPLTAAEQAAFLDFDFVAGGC
UniProt P42336, sequence (whole entry, unmodified, looked up): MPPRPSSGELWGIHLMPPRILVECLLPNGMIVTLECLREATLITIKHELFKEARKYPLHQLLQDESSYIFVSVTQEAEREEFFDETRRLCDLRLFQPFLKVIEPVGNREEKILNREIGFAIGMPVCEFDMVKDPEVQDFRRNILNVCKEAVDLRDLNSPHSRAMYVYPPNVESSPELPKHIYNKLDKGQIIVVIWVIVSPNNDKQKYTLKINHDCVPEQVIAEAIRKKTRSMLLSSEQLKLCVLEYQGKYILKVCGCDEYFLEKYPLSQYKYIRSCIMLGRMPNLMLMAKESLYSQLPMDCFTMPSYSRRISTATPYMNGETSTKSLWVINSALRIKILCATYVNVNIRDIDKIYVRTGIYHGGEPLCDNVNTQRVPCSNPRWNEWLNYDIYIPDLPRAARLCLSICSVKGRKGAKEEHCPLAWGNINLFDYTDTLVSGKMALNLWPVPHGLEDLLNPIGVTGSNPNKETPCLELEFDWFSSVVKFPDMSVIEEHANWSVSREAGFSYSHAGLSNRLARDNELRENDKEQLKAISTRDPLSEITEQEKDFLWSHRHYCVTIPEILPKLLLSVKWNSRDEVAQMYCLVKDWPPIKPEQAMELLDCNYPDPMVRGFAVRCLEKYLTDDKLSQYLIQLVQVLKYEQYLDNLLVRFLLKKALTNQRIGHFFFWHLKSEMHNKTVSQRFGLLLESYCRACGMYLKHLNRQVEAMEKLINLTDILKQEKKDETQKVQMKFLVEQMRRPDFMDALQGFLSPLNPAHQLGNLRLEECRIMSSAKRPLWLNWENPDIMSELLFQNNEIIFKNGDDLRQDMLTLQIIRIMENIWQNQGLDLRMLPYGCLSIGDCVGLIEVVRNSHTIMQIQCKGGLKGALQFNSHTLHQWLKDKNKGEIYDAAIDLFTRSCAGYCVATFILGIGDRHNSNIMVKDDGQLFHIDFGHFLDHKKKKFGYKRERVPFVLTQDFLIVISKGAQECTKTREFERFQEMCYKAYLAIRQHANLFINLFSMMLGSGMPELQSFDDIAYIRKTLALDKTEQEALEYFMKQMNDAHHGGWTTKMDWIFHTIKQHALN
UniProt P48729, sequence (whole entry, looked up): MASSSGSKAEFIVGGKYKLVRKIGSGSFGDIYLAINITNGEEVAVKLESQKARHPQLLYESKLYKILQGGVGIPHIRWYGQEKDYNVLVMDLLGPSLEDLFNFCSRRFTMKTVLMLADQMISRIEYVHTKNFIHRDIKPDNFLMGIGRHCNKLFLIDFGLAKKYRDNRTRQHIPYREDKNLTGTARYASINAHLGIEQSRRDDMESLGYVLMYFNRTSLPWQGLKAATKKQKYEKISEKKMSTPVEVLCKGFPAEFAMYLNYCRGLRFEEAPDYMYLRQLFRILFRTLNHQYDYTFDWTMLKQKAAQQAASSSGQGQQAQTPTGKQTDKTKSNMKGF
UniProt P78362, sequence (whole entry, looked up): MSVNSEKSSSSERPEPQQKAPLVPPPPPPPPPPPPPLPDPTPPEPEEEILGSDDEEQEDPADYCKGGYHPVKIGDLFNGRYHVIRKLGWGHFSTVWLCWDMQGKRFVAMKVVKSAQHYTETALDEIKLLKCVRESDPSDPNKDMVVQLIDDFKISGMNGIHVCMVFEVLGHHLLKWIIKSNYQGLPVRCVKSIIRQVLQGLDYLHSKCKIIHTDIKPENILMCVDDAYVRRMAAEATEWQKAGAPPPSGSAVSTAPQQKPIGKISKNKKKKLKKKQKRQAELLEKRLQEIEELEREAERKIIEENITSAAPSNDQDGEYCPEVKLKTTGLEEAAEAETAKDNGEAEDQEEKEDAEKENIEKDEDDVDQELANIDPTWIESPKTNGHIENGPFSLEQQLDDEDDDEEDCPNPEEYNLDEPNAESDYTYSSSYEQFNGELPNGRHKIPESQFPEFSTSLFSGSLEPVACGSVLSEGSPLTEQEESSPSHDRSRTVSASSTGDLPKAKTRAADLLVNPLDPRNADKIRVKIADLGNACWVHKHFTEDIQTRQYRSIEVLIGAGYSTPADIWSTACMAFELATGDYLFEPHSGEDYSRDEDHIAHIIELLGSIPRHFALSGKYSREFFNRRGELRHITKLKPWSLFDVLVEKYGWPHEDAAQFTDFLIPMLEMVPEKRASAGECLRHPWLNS
UniProt Q9NRH2, sequence (whole entry, looked up): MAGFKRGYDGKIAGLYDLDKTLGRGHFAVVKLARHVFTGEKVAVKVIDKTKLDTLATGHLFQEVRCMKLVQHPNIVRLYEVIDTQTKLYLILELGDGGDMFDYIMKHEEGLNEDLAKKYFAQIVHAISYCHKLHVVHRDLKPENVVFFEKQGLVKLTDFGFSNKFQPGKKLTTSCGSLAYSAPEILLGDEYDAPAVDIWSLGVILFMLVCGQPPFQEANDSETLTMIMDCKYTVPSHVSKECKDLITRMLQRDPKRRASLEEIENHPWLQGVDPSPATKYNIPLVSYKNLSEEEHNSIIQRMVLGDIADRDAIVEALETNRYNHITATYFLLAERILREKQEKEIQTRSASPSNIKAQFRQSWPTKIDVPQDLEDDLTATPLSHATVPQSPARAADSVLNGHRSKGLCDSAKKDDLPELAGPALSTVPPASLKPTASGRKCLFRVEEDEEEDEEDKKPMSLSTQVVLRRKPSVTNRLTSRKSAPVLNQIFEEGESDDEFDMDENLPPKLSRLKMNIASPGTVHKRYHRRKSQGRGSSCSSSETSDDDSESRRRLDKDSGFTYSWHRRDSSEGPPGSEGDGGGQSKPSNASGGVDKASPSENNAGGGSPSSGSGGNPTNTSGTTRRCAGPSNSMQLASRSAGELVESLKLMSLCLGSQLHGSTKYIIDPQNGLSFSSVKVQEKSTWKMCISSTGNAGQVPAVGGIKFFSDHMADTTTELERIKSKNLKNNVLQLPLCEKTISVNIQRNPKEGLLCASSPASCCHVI

Block 1
Observed: AlphaScreen signal
Technique: AlphaScreen counter screen
Sample: His6 peptide without bromodomain
Tested at: 50 µM
Notes: assay interference check
Quantity: inhibition
SMILES = CC(C)(C)c1cnc(CSc2cnc(NC(=O)C3CCNCC3)s2)o1; value = 21.3%
SMILES = c1ccc(-c2cnc3c(N4CCOCC4)nccn23)cc1; value = 13.7%
SMILES = COc1ccc(-c2[nH]c3ncccc3c2CN2CCN(C)CC2)cc1; value = 14.5%
SMILES = N#CC(=Cc1cccnc1)c1nc2ccccc2s1; value = 23%
SMILES = CC(C)n1cnc2c(Nc3ccc(-c4ccccn4)cc3)nc(N[C@H](C)CO)nc21; value = 53.5%
SMILES = O=C(Nc1ccc(N2CCOCC2)cc1)Nc1ccc(Cl)c(Cl)c1; value = 29.9%
SMILES = C=CCc1cccc(C=NCCS(=O)(=O)O)c1O; value = 16.2%
SMILES = CNC(=O)c1cccc(-c2ccc3c(N4CCOC[C@@H]4C)nc(N4CCOC[C@@H]4C)nc3n2)c1; value = -26.1%
SMILES = O=C(O)c1cc(N(Cc2ccccc2O)Cc2cc(O)ccc2O)ccc1O; value = 19.5%

Block 2
Species: human
Sample: microsomes or S9
Tested at: 2 µM
Time: 0.5 h
Quantity: remaining compound
SMILES = COc1ccc([C@H](O)[C@H]2OCCN(Cc3ccccc3)C2=O)cc1; value = 11.3%
SMILES = Cn1c(Cc2ccccc2)c(-c2ccccc2)c(=O)n1C; value = 72.2%
SMILES = O=C(Cc1cnc[nH]c1=O)N[C@@H]1CCCC[C@H]1c1ccccc1; value = > 100%
SMILES = O=c1[nH]c2c(S(=O)(=O)c3ccc(Br)cc3)nnn2c2ccsc12; value = 77.8%
SMILES = Cc1ccc(C(C)C)c(OCCNC(=O)CCCCNS(=O)(=O)c2ccccc2)c1; value = 0.236%
SMILES = Cc1ccc(C)c(NC(=O)N2CCc3[nH]cnc3C2)c1; value = 96%
SMILES = Cc1sc2c(C3CCN(C(=O)C(C)NC4CCS(=O)(=O)C4)CC3)nc(C)n2c1C (stereo not shown); value = 51.3%
SMILES = CCC(C)(C)C1CCC2(CC1)NC(=O)N(CC(=O)N1CCC(N3CCNC3=O)CC1)C2=O (stereo not shown); value = 62.6%
SMILES = CCc1c(C)nc2cc(-c3cc(OC)cc(OC)c3)nn2c1NCCN(CC)CC; value = 30.6%
SMILES = CC(C)Oc1nnc(SCc2nc3c(=O)n(C)c(=O)n(C)c3[nH]2)s1; value = 82.2%

Block 3
Target: Serine/threonine-protein kinase VRK1 (VRK1, Homo sapiens, UniProt Q99986)
Observed: enzyme activity
Mode: inhibitor
Tested at: 0.5 µM
Reference: control
Quantity: remaining activity
Construct (Q99986 1-396): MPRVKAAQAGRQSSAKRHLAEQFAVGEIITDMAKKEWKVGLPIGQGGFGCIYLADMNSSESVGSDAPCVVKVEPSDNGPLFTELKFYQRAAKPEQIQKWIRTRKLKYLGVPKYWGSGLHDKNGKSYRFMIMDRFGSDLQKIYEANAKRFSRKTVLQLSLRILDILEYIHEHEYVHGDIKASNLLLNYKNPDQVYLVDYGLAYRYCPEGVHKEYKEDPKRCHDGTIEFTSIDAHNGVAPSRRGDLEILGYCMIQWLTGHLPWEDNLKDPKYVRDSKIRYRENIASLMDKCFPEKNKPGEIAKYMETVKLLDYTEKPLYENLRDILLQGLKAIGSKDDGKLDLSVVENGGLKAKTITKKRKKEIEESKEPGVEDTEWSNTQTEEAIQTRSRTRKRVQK
Structure (SMILES) = O=C1c2ccccc2-c2nc3nnnn3nc21; value = 90.5%
Structure (SMILES) = O=c1c(-c2ccc(F)cc2)c(-c2ccncc2)[nH]n1-c1ccc(Cl)cc1; value = 92.9%
Structure (SMILES) = CC(C)(C)c1nc2c3cc[nH]c(=O)c3c3cc(F)ccc3c2[nH]1; value = 82.2%
Structure (SMILES) = COc1cc2c(Nc3ccc(Br)cc3F)ncnc2cc1OCC1CCN(C)CC1; value = 98.9%
Structure (SMILES) = NC(=O)c1ccc(-c2nc(-c3ccc4c(c3)OCCO4)c(-c3ccccn3)[nH]2)cc1; value = 92.6%
Structure (SMILES) = C[C@@H](N)[C@H]1CC[C@H](C(=O)Nc2ccncc2)CC1; value = 101%
Structure (SMILES) = O=C1NC(=O)/C(=C/c2ccc3c(c2)OC(F)(F)O3)S1; value = 85.6%
Structure (SMILES) = c1cc(-c2cnn3cc(-c4ccc(OCCN5CCCCC5)cc4)cnc23)ccn1; value = 86%
Structure (SMILES) = O=C(O)/C=C/c1cc(Br)c(Br)c(Br)c1Br; value = 89.8%
Structure (SMILES) = CC(C)N(CCC(=O)c1ccc2ccccc2c1)Cc1ccccc1; value = 95.8%
Structure (SMILES) = N#C/C(=C(/N)SC1C=CC=CC1)c1cccc(C(O)c2ccncc2)c1 (stereo not shown); value = 95.9%

Block 4
SMILES: CC1=C(C#N)[C@@H](c2ccc3[nH]nc(C)c3c2)C(C#N)=C(c2ccc(Cl)cc2)N1
Observed: cell-free assay
Technique: competition with immobilised ligand
Tested at: 1 µM
Quantity: remaining binding
target = BRSK1 (Homo sapiens, UniProt Q8TDC3); value = 100%
target = CSNK1A1 (Homo sapiens, UniProt P48729); value = 64.7%
target = KIT (Homo sapiens, UniProt P10721, T670I/V559D); value = 84.4%
target = EGFR (Homo sapiens, UniProt P00533, del752-759); value = 100%
target = KIT (Homo sapiens, UniProt P10721, L576P); value = 100%
target = SRPK2 (Homo sapiens, UniProt P78362); value = 100%
target = MAP3K14 (Homo sapiens, UniProt Q99558); value = 100%
target = KIT (Homo sapiens, UniProt P10721, A829P); value = 100%
target = PIK3CA (Homo sapiens, UniProt P42336, H1047Y); value = 35.8%
target = HIPK1 (Homo sapiens, UniProt Q86Z02); value = 56.7%
target = Ribosomal protein S6 kinase alpha-3, N-terminal kinase domain (RPS6KA3, Homo sapiens, UniProt P51812); value = 78.1%
target = EGFR (Homo sapiens, UniProt P00533, L861Q); value = 100%
target = SNRK (Homo sapiens, UniProt Q9NRH2); value = 100%
target = CAMK2A (Homo sapiens, UniProt Q9UQM7); value = 100%
target = DDR1 (Homo sapiens, UniProt Q08345); value = 84.5%
target = PKN1 (Homo sapiens, UniProt Q16512); value = 91.4%

Excerpt of the above (block 4):
target = EGFR (Homo sapiens, UniProt P00533, L861Q); value = 100%
target = SNRK (Homo sapiens, UniProt Q9NRH2); value = 100%
target = CAMK2A (Homo sapiens, UniProt Q9UQM7); value = 100%
